Measured values from different studies.
Each line is one published result; not all experiments were run side by side.

| Compound | test | test system | conditions | how to read | measurement | result |
| --- | --- | --- | --- | --- | --- | --- |
| OCCOCc1ccc(-c2noc(-c3ccc(OCC[18F])c(C(F)(F)F)c3)n2)cc1 | ultrafiltration | Macaca mulatta, plasma | baseline, both animals | – | plasma free fraction | < 1% |
| COc1ccc(C2CC(=O)c3c(O)cc(OS(=O)(=O)O)cc3O2)cc1O (centres unmarked) | – | human plasma | mean | – | plasma concentration | 7680 nM |
| C[C@H](CCC(=O)NCC(=O)O)[C@H]1CC[C@H]2[C@@H]3CC[C@@H]4C[C@H](O)CC[C@]4(C)[C@H]3C[C@H](O)[C@]12C | – | women, T/C genotype, plasma | dose not given, geometric mean | – | plasma concentration | 115 ng/mL |
| Cc1cc(Nc2ccc(S(F)(F)(F)(F)F)cc2)n2ncnc2n1 | – | diluted mouse plasma | 2 µM, 6 h | – | plasma stability | 95 % remaining |
| C[C@@H](O)[C@H](NC(=O)[C@H](Cc1ccc(O)cc1)NC(=O)[C@H](Cc1ccc(O)cc1)NC(=O)[C@H](CO)NC(=O)[C@H](CCCNC(=N)N)NC(=O)[C@H](Cc1c[nH]cn1)NC(=O)[C@@H](N)Cc1c[nH]c2ccccc12)C(=O)N[C@@H](Cc1c[nH]c2ccccc12)C(=O)N[C@@H](CC(N)=O)C(=O)NCCCC[C@H](NC(=O)[C@H](CC(N)=O)NC(=O)[C@H](Cc1c[nH]c2ccccc12)NC(=O)[C@@H](NC(=O)[C@H](Cc1ccc(O)cc1)NC(=O)[C@H](Cc1ccc(O)cc1)NC(=O)[C@H](CO)NC(=O)[C@H](CCCNC(=N)N)NC(=O)[C@H](Cc1c[nH]cn1)NC(=O)[C@@H](N)Cc1c[nH]c2ccccc12)[C@@H](C)O)C(=O)NCCCC[C@H](NC(=O)[C@H](CCCCNC(=O)[C@H](CC(N)=O)NC(=O)[C@H](Cc1c[nH]c2ccccc12)NC(=O)[C@@H](NC(=O)[C@H](Cc1ccc(O)cc1)NC(=O)[C@H](Cc1ccc(O)cc1)NC(=O)[C@H](CO)NC(=O)[C@H](CCCNC(=N)N)NC(=O)[C@H](Cc1c[nH]cn1)NC(=O)[C@@H](N)Cc1c[nH]c2ccccc12)[C@@H](C)O)NC(=O)[C@H](CC(N)=O)NC(=O)[C@H](Cc1c[nH]c2ccccc12)NC(=O)[C@@H](NC(=O)[C@H](Cc1ccc(O)cc1)NC(=O)[C@H](Cc1ccc(O)cc1)NC(=O)[C@H](CO)NC(=O)[C@H](CCCNC(=N)N)NC(=O)[C@H](Cc1c[nH]cn1)NC(=O)[C@@H](N)Cc1c[nH]c2ccccc12)[C@@H](C)O)C(=O)N[C@@H](CCCCN)C(=O)N[C@@H](CCCCN)C(=O)N[C@@H](CCCCN)C(N)=O | – | human serum albumin | – | – | plasma protein binding | 95% |
| O=Cc1ccc(O)c(O)c1 | – | human plasma | mean, both sexes | – | plasma concentration | 18.6 nM |
| O=C1CCc2ccc(OCCCCN3CCN(c4cccc(Cl)c4Cl)CC3)cc2N1 | – | patients, plasma, steady state | oral or long-acting depot injection, dose not given, CYP2D6 IM | baseline: CYP2D6 NM | plasma level increase | 61% |
| COc1cc2c3c(n(CCCNCCO)c(=O)c2cc1OC)-c1nc2c(cc1C3=O)OCO2 | – | mouse plasma | 1 µM, 6 h, 37 °C | – | plasma stability | 97.6% |
| C=CC(=O)N1CCC([C@@H]2CCNc3c(C(N)=O)c(-c4ccc(Oc5ccccc5)cc4)nn32)CC1 | – | human K2EDTA plasma | laboratory lighting | – | plasma stability at room temperature | 8.5 h |
| O=C(O)C=Cc1ccc(O)c(OS(=O)(=O)O)c1 | – | human plasma | median | – | plasma concentration | 188 nM |
| C[C@H](CCC(=O)NCC(=O)O)[C@H]1CC[C@H]2[C@@H]3[C@H](O)C[C@@H]4C[C@H](O)CC[C@]4(C)[C@H]3CC[C@]12C | – | men, C/C genotype, plasma | dose not given, geometric mean | – | plasma concentration | 813 ng/mL |
| CCNCCCn1c2c(c3cc(OC)c(OC)cc3c1=O)C(=O)c1cc3c(nc1-2)OCO3 | – | human plasma | 1 µM, 6 h, 37 °C | – | plasma stability | 86.2% |
| COc1cc(CCC(=O)O)ccc1OS(=O)(=O)O | – | human plasma | mean | – | plasma concentration | 409 nM |
| COc1ccccc1OCC(O)CN1CCN(CC(=O)Nc2c(C)cccc2C)CC1 (centres unmarked) | – | human, plasma | oral, 12 mg/kg/day every 12 h, 3 h post-dose | – | plasma concentration | 269 ng/mL |
| O=c1oc2cc(O)ccc2c2ccccc12 | – | human plasma | median | – | plasma concentration | 293 nM |
| C[C@@H](O)[C@H](NC(=O)[C@H](Cc1ccc(O)cc1)NC(=O)[C@H](Cc1ccc(O)cc1)NC(=O)[C@H](CO)NC(=O)[C@H](CCCNC(=N)N)NC(=O)[C@H](Cc1c[nH]cn1)NC(=O)[C@@H](N)Cc1c[nH]c2ccccc12)C(=O)N[C@@H](Cc1c[nH]c2ccccc12)C(=O)N[C@@H](CC(N)=O)C(N)=O | – | human serum albumin | – | – | plasma protein binding | 84% |
| CC(=O)N1CCN(c2ccc(OCC3COC(Cn4ccnc4)(c4ccc(Cl)cc4Cl)O3)cc2)CC1 (centres unmarked) | – | human plasma | 1 µM, 6 h, 37 °C | – | plasma stability | 105% |
| COc1c(O)cc(C(=O)O)cc1OS(=O)(=O)O | – | human plasma | mean | – | plasma concentration | 723 nM |
| Cl.N=C(CC(O)c1cc2c(F)cc(F)cc2c2cc(C(F)(F)F)ccc12)Nc1ccc(Br)cc1 (centres unmarked) | – | human plasma | 2.5 and 50 ng/mL | – | plasma half-life | 33 to 38 h |
| O=c1c2cc(Cl)ncc2[nH]c(=S)n1Cc1cccnc1 | – | mouse plasma | concentration not given | – | plasma stability | 95 to 98.7% |
| COc1cc2c3c(n(CCCNC(C)C)c(=O)c2cc1OC)-c1nc2c(cc1C3=O)OCO2 | – | human plasma | 1 µM, 6 h, 37 °C | – | plasma stability | 95% |
| CC(C)C[C@H](NC(=O)[C@@H](Cc1c[nH]c2ccccc12)NC(=O)[C@H](Cc1ccc(O)cc1)NC(=O)[C@H](CO)NC(=O)[C@H](Cc1c[nH]c2ccccc12)NC(=O)[C@H](Cc1c[nH]cn1)NC(=O)[C@@H]1CCC(=O)N1)C(=O)N[C@@H](CCCNC(=N)N)C(=O)N1CCC[C@H]1C(=O)NCC(N)=O | – | Chinese boys, precocious puberty, plasma | intramuscular, 22.5 mg, 2160 h, month 3, mean | – | plasma concentration | 0.0422 ng/mL |
| O=C(/C=C/c1ccc(O)c(O)c1)O[C@@H]1C[C@](O)(C(=O)O)C[C@@H](O)[C@H]1O | – | human plasma | mean, both sexes | – | plasma concentration | 151 nM |
| CC#Cc1cncc(-c2ccc3c(c2)[C@@]2(N=C(C)C(N)=N2)[C@]2(CC[C@H](OC)CC2)C3)c1 | – | human, dog, guinea pig, rat, mouse plasma | – | – | plasma stability | stable |
| O=C(O)C(O)Cc1ccc(O)cc1 (centres unmarked) | – | human plasma | mean | – | plasma concentration | 10200 nM |
| O=C(CCCCCCC(=O)Nc1ccccc1)NO | – | rat plasma | – | – | plasma stability | stable |

Excerpt of the above:
| Compound | test | test system | conditions | how to read | measurement | result |
| --- | --- | --- | --- | --- | --- | --- |
| CC(C)C[C@H](NC(=O)[C@@H](Cc1c[nH]c2ccccc12)NC(=O)[C@H](Cc1ccc(O)cc1)NC(=O)[C@H](CO)NC(=O)[C@H](Cc1c[nH]c2ccccc12)NC(=O)[C@H](Cc1c[nH]cn1)NC(=O)[C@@H]1CCC(=O)N1)C(=O)N[C@@H](CCCNC(=N)N)C(=O)N1CCC[C@H]1C(=O)NCC(N)=O | – | Chinese boys, precocious puberty, plasma | intramuscular, 22.5 mg, 2160 h, month 3, mean | – | plasma concentration | 0.0422 ng/mL |
| O=C(/C=C/c1ccc(O)c(O)c1)O[C@@H]1C[C@](O)(C(=O)O)C[C@@H](O)[C@H]1O | – | human plasma | mean, both sexes | – | plasma concentration | 151 nM |
